Published values pooled from the literature.
Numbered parts are unrelated; each lists some results of a single study.
UniProt P54762, sequence (whole entry, looked up): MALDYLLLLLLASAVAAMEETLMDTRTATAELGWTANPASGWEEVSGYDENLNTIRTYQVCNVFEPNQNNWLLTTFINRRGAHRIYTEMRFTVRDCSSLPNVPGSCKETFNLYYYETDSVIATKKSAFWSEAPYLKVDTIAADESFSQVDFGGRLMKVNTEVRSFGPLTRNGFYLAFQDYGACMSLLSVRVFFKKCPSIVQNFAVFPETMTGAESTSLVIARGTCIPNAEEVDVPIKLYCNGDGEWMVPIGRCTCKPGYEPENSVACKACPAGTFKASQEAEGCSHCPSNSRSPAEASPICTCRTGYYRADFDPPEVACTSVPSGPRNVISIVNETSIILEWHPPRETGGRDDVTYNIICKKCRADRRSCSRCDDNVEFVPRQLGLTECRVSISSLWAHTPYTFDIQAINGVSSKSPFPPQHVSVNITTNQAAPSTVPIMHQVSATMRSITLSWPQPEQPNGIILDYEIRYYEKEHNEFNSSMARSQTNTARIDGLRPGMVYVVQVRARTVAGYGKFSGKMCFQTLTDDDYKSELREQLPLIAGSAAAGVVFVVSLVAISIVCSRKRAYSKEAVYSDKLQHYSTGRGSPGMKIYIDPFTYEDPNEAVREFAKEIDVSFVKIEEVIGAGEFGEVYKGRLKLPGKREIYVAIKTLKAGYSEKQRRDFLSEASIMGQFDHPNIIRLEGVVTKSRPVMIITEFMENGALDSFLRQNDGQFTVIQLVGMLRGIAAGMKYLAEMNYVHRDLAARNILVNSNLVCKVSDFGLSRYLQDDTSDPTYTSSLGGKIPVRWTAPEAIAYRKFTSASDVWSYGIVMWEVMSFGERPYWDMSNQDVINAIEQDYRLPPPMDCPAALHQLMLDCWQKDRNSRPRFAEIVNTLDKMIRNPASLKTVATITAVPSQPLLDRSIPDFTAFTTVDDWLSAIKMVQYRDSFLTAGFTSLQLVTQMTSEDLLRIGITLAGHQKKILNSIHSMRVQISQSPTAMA
UniProt P22612, sequence (whole entry, looked up): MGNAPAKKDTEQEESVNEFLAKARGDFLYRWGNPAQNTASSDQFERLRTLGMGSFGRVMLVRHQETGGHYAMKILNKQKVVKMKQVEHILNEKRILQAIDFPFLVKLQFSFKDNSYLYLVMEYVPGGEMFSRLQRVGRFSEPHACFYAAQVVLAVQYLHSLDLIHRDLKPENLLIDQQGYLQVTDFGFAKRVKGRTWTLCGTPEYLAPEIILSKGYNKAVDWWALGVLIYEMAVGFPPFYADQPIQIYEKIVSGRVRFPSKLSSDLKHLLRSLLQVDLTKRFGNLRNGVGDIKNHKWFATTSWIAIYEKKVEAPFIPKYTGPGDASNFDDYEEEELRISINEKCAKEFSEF

Study 1
Target: Beta-2 adrenergic receptor (ADRB2, Homo sapiens, UniProt P07550)
Read-out: binding
Method: radioligand binding
Tested at: 10 µM
SMILES	inhibition [%]
Cc1c(N2CCCC2)nc2ccc(Br)cc2c1C(=O)NC[C@H](CCC(=O)O)c1ccccc1Cl	19.9
COc1cc(-c2cn(C3CCc4ccccc4N(CC(F)(F)F)C3=O)nn2)ccc1-n1ccc(C)n1 (stereo not drawn)	-13.7
CNC(=O)c1ccc(Nc2ncc(C(F)(F)F)c(NCc3nccnc3N(C)S(C)(=O)=O)n2)cc1	-13.2
O=C(Nc1ccc(-n2nc(-c3cccnc3)cc2C(F)(F)F)cn1)c1ccc(-c2ccccc2)c(F)c1	5.14
CC(=O)N1CCC(c2ccc(C(=O)NC(=N)N)cc2C(F)(F)F)CC1	-9.75
Cc1cc(C)c(-n2ccn3nc(-c4cccnc4)cc23)cc1NC(=O)c1cc(C#N)cc(S(F)(F)(F)(F)F)c1	25.6
COc1cccc(CNC(=O)c2nc3scc(COCc4ccc(C(=O)O)cc4)c3c(=O)[nH]2)c1	25.4
CC(C)CC(=O)N1CCc2nc(-c3ccc(Br)cc3)nc(N(C)Cc3ccccc3)c2C1	5.63
Cc1nccc(COC(=O)N2C[C@@H]3[C@@H](CNC(=O)c4ccc5[nH]nnc5c4)[C@@H]3C2)n1	-9.93

Study 2
Target: RNA binding protein fox-1 homolog 2, RRM domain, GST-SBP tag (RBFOX2, Homo sapiens, UniProt O43251-10, residues 100-194)
Method: RNA Bind-n-Seq
Form: RNA
Sample: in vitro
Tested at: 365 nM
Setting: natural RNA segment, single round, ends assumed
Reference: no-protein control
Direction: higher = stronger binding
All sequences stand within: GGGAGUUCUACAGUCCGACGAUC … UGGAAUUCUCGGGUGCCAA
Construct (chain): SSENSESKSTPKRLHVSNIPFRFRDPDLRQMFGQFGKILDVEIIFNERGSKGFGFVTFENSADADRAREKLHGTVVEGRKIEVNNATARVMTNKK
Sequence	RBNS enrichment (R)
ACCUCAGGGCCACUGCAUUGUUUUGCCAAAAUCUUACUCCAGAUUAAGUACAGAACUUGGUUUCUAACCGUAUUUAGUUUUAUAUGUGUAUUCAGACAGUUAGAGUUUUG	0.374
GGAAACCAAACCCUCCCACAGUUCCCAAGCAGACACUGGAAGCAGAGGCUUCUCACCCUUCCUGCUUUUUCACCACAAUCACCUUGAGCUCGUCCCUUGGACUAGAGUCU	0.327
AAUGAUAUUUUAGAGUCUGAGUGACCCCUUUGACUAUCAGUUCUGAAGAGCAAUUCUCACUGGUAACUUGACAUCUCUCAAUUUCAGGAUCUUUGCCUCUCAUUAAAAGU	0.306
GUUGGACAUGGAUUGACUGGGAAAAGGCCUGGGUCCAUUGGAGUAAAGAUAACCUAGUCGAUUGAAUUGGCCAUGGGAAGUUAGGUCACAGUCUUAUAAACAAAGUAAAU	1.81
UUAAAAAAAUGCCAUAACUAUUAAACACCUUGUUUACAGACAGAUGAAAUAAAUUUAUUCCAACCAAUACUCUAGGCUCCUGUUGUUUAUAUACAUUGUUUAUAUAAACU	0.308
UUCCUCUGAAGCACCCUGAAGGGUGCCAUCCUUACAGAGCUAAGUGGAGACGUUUCCAGAUCAGCCCAAGUUUACUAUAGAGACUGGCCCAGGCACUGAAUGUCUAGGAC	0.245
GGUUGACCUAAAAUUAGCCUUACAAAGGAGAAAGGACCACAUUGCUUACUUGAAACAGACAAUGAAAACAACCAAAGUGAUAUAUAAAAUAGUUGAUGAGAACUAGACUU	2.19
UCAAGGACAGGAGCCUGGUCCUUCCCUGAUGGCCUUUGGACCCAGGGCCUGACUUGAGCCACUCCUUCCUUCAGGACUCUGCGGGAGGCUGGGGCCCCAUCUUGAUCUUU	0.469

Study 3
Target: Sal-like protein 4, full length isoform A (SALL4, Homo sapiens, UniProt Q9UJQ4, residues 1-1053)
UniProt Q9UJQ4, sequence (whole entry, looked up): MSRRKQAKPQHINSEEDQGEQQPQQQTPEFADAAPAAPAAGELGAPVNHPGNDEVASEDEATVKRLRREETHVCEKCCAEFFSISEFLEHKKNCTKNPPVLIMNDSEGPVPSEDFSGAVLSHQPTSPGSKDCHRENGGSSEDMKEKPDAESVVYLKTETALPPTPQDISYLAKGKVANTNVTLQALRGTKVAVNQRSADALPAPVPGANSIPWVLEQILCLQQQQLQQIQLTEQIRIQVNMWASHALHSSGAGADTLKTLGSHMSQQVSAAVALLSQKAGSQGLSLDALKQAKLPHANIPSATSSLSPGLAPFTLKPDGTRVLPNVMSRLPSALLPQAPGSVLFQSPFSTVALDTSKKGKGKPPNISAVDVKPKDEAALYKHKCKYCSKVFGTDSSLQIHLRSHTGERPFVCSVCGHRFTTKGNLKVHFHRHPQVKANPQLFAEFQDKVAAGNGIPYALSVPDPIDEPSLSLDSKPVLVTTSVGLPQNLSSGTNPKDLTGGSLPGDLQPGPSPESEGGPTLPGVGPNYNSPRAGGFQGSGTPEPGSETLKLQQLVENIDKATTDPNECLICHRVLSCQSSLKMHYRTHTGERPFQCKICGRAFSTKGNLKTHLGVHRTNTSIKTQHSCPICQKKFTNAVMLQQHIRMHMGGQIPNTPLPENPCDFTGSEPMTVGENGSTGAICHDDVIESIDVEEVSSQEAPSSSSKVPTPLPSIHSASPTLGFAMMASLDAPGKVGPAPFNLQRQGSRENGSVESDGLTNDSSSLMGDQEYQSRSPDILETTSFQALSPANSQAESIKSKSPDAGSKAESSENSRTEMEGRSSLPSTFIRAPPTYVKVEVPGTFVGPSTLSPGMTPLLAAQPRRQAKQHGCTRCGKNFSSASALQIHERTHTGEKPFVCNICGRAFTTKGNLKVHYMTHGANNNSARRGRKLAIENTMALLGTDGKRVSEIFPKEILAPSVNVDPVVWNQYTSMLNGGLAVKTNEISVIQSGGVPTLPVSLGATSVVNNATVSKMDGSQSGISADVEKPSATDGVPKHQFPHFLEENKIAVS
Method: universal PBM
Form: double-stranded DNA, one strand shown
Sample: in vitro
Tested at: 600 nM
Setting: 8-mer, flanks averaged, mean of replicates
Direction: higher = stronger binding
Sequence	E-score
CATTAGAA	0.218
GAAGCCAA	-0.0254
AGGGAGTG	-0.232
AGATTGGA	0.0901
ACATGTCA	0.0968
TATTTCCA	0.321
CTAAGAAC	-0.106
AAGAGATC	-0.09

Mixed results
Read-out: enzyme activity
Mode: inhibitor
Tested at: 0.5 µM
Reference: control
Structure (SMILES)	target	remaining activity [%]
CN([C@@H](Cc1ccc(OS(=O)(=O)c2cccc3cnccc23)cc1)C(=O)N1CCN(c2ccccc2)CC1)S(=O)(=O)c1cccc2cnccc12	Ephrin type-B receptor 1 (EPHB1, Homo sapiens, UniProt P54762)	94.2
O=C1Nc2ccc(Cl)cc2C1=Cc1cc(Cl)c(O)c(Cl)c1	cAMP-dependent protein kinase catalytic subunit gamma (PRKACG, Homo sapiens, UniProt P22612)	99.2

Repeated from above (study 1):
SMILES	inhibition [%]
COc1cc(-c2cn(C3CCc4ccccc4N(CC(F)(F)F)C3=O)nn2)ccc1-n1ccc(C)n1 (stereo not drawn)	-13.7
O=C(Nc1ccc(-n2nc(-c3cccnc3)cc2C(F)(F)F)cn1)c1ccc(-c2ccccc2)c(F)c1	5.14
Cc1nccc(COC(=O)N2C[C@@H]3[C@@H](CNC(=O)c4ccc5[nH]nnc5c4)[C@@H]3C2)n1	-9.93
